{"data": "Results from different studies", "note": "Numbered parts are unrelated; each lists some results of a single study.", "sequence of UniProt O00238 (whole entry, looked up)": "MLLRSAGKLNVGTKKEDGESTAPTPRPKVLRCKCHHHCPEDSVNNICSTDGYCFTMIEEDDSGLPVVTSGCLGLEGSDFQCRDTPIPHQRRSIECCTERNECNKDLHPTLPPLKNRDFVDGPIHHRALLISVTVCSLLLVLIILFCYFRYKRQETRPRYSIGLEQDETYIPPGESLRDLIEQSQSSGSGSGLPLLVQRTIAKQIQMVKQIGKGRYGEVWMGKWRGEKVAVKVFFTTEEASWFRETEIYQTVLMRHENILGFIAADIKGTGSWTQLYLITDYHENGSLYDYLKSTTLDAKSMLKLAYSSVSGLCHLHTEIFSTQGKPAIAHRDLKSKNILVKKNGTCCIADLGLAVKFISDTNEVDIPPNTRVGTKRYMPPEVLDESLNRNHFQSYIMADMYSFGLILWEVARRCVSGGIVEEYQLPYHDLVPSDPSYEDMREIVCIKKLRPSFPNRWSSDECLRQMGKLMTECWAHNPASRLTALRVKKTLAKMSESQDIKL", "sequence of UniProt Q9Y6E0 (whole entry, looked up)": "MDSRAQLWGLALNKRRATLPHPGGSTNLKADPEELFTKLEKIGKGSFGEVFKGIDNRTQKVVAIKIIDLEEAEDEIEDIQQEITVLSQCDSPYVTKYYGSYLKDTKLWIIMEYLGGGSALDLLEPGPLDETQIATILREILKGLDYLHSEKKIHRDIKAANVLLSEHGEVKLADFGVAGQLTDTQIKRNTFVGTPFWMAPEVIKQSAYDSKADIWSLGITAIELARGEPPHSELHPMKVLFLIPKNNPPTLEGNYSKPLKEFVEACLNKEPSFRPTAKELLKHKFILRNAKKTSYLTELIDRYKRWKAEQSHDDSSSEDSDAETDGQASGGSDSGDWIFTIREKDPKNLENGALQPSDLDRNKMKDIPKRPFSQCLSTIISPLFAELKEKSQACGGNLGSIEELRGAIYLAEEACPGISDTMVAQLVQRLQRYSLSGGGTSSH", "sequence of UniProt Q15759 (whole entry, looked up)": "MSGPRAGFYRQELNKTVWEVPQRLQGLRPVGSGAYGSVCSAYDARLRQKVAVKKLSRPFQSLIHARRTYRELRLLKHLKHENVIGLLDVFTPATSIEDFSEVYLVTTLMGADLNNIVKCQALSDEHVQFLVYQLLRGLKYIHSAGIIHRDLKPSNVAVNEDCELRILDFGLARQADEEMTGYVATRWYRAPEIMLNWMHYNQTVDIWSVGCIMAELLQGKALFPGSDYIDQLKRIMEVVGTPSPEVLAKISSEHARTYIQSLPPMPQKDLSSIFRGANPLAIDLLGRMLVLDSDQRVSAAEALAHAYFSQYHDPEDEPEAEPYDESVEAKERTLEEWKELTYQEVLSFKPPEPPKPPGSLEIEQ", "sequence of UniProt P07333 (whole entry, looked up)": "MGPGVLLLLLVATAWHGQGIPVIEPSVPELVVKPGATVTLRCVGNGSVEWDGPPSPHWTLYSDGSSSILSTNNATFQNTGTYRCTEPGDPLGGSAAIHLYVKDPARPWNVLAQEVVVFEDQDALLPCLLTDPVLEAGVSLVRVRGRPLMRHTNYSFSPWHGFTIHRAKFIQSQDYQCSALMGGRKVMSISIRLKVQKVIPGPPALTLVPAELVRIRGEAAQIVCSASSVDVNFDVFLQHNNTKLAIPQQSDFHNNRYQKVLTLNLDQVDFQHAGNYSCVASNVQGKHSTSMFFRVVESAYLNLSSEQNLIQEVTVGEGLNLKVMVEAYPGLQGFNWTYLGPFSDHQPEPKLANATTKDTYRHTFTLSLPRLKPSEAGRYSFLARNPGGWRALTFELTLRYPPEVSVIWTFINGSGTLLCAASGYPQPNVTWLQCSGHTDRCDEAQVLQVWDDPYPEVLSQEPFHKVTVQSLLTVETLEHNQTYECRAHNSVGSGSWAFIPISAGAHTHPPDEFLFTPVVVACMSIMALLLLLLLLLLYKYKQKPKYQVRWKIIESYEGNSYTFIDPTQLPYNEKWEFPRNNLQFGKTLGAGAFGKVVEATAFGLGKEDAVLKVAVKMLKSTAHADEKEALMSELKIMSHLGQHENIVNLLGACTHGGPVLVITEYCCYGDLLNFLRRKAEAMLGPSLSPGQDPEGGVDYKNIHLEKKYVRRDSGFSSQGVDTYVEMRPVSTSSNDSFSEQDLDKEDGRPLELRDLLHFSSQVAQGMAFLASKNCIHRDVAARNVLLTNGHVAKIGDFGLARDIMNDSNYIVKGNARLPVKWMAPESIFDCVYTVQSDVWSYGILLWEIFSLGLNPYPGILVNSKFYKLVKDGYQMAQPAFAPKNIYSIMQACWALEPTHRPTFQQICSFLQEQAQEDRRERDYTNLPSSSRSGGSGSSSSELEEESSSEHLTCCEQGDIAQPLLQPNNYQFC", "sequence of UniProt P31751 (whole entry, looked up)": "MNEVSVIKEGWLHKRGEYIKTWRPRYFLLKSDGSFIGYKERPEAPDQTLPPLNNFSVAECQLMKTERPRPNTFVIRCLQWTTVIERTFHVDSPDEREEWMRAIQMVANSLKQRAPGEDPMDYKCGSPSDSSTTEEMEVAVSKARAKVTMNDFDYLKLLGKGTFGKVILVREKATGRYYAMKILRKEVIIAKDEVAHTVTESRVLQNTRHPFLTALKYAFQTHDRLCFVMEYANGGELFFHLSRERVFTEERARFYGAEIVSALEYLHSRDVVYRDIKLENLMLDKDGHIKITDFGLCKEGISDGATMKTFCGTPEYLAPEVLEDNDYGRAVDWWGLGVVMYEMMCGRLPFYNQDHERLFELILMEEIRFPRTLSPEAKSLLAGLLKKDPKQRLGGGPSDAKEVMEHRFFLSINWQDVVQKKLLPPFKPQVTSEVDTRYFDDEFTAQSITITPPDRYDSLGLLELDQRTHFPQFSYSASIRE", "sequence of UniProt P54762 (whole entry, looked up)": "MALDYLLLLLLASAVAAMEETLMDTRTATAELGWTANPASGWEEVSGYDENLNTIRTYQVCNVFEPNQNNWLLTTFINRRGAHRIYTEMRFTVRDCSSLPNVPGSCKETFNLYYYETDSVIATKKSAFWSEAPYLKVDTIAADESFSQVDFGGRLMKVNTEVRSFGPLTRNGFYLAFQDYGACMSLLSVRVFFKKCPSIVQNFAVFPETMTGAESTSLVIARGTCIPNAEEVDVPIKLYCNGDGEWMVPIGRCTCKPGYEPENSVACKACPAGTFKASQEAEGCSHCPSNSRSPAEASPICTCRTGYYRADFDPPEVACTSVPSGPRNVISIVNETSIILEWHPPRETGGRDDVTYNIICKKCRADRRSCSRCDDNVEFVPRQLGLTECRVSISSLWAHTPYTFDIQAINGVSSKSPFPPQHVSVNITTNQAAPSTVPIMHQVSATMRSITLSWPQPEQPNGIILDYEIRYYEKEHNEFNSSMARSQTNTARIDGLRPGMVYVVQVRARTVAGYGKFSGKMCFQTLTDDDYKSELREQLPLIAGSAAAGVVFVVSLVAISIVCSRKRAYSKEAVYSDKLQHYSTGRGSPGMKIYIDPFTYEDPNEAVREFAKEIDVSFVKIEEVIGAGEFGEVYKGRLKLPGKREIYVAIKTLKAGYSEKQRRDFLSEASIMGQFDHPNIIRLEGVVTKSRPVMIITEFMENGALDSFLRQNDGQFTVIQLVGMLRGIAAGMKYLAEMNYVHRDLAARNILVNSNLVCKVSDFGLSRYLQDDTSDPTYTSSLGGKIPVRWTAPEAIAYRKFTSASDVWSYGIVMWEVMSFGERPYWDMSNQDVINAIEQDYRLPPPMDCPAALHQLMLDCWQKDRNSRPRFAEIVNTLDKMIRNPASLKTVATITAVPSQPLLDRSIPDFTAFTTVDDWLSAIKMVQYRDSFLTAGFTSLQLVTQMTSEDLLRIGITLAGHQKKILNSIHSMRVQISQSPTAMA"}
{"data": "Series 1", "target": "Cyclin-dependent kinase 6, with cyclin D1 (CDK6, Homo sapiens, UniProt Q00534)", "effect on": "enzyme activity", "action": "inhibitor", "tested at": "0.5 µM", "baseline": "control", "sequence of UniProt Q00534 (whole entry, looked up)": "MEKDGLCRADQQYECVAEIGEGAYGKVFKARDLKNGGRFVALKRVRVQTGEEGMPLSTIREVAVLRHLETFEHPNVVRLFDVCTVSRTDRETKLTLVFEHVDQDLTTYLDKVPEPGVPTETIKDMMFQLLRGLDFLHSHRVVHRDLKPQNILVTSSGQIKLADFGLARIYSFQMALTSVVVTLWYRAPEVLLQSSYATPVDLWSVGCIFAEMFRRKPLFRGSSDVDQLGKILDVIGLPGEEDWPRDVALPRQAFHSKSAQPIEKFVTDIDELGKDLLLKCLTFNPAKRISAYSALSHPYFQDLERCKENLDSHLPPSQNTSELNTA"}
{"Structure (SMILES)": "Nc1[nH]nc2nnc(-c3c(-c4ccccc4)nn4ccccc34)cc12", "remaining activity": "100%"}
{"Structure (SMILES)": "CCOc1cc2ncnc(Nc3cccc(Br)c3)c2cc1OCC", "remaining activity": "102%"}
{"Structure (SMILES)": "O=C1NC(=O)/C(=C/c2ccc3nccnc3c2)S1", "remaining activity": "97.5%"}
{"Structure (SMILES)": "Cc1ccc(NC(=O)c2ccc(CN3CCN(C)CC3)cc2)cc1Nc1nccc(-c2cccnc2)n1", "remaining activity": "99%"}
{"Structure (SMILES)": "Cc1nc(Nc2ncc(C(=O)Nc3c(C)cccc3Cl)s2)cc(N2CCN(CCO)CC2)n1", "remaining activity": "95.5%"}
{"Structure (SMILES)": "CCN1/C(=C/C(C)=O)Sc2ccc(OC)cc21", "remaining activity": "108%"}
{"Structure (SMILES)": "COc1ccc(-c2cnc3c(-c4ccsc4)cnn3c2)cc1", "remaining activity": "53.4%"}
{"Structure (SMILES)": "CN(C)CCCn1cc(C2=C(c3c[nH]c4ccccc34)C(=O)NC2=O)c2ccccc21", "remaining activity": "58.3%"}
{"Structure (SMILES)": "CC(C)[C@H](CO)Nc1nc(Nc2cccc(Cl)c2)c2ncn(C(C)C)c2n1", "remaining activity": "67.5%"}
{"Structure (SMILES)": "Cn1cc(/C=C2\\C(=O)Nc3ccc(S(N)(=O)=O)cc32)c2ccccc21", "remaining activity": "82.4%"}
{"Structure (SMILES)": "Cn1cnc2cc3c(Nc4cccc(Br)c4)ncnc3cc21", "remaining activity": "107%"}
{"Structure (SMILES)": "CC(=O)O/N=C1/C(c2c(O)[nH]c3cc(Br)ccc23)=Nc2ccccc21", "remaining activity": "53.2%"}
{"Structure (SMILES)": "CC(C)c1nn(-c2c(Cl)cccc2Cl)c2nc(Cc3ccc(OCCO)cc3)[nH]c(=O)c12", "remaining activity": "19.8%"}
{"Structure (SMILES)": "C[S+]([O-])c1ccc(-c2nc(-c3ccncc3)c(-c3ccc(F)cc3)[nH]2)cc1 (centres unmarked)", "remaining activity": "100%"}
{"Structure (SMILES)": "COc1cc2ncc(-c3ccccc3)nc2cc1OC", "remaining activity": "94.1%"}
{"Structure (SMILES)": "CCC(=O)Nc1ccc2ncnc(Nc3cccc(Br)c3)c2c1", "remaining activity": "92.5%"}
{"Structure (SMILES)": "O=c1cc(N2CCOCC2)oc2c1ccc1ccccc12", "remaining activity": "102%"}
{"Structure (SMILES)": "CS(=O)(=O)CCNCc1ccc(-c2ccc3ncnc(Nc4ccc(OCc5cccc(F)c5)c(Cl)c4)c3c2)o1", "remaining activity": "100%"}
{"Structure (SMILES)": "COc1cc2ncnc(N3CCN(C(=O)Nc4ccc(Oc5ccccc5)cc4)CC3)c2cc1OC", "remaining activity": "95.1%"}
{"Structure (SMILES)": "O=C(Nc1ccc(Cl)cc1)c1ccccc1NCc1ccncc1", "remaining activity": "93.4%"}
{"Structure (SMILES)": "COc1cc2ncnc(Nc3ccc(OCc4ccccc4)cc3)c2cc1OC", "remaining activity": "96.7%"}
{"Structure (SMILES)": "COc1ccc(Cl)cc1NC(=O)Nc1cc(C)nc2ccccc12", "remaining activity": "89.8%"}
{"data": "Series 2", "target": "Calcium/calmodulin-dependent protein kinase type II subunit alpha (CAMK2A, Homo sapiens, UniProt Q9UQM7)", "effect on": "enzyme activity", "action": "inhibitor", "tested at": "10 µM", "sequence of UniProt Q9UQM7 (whole entry, looked up)": "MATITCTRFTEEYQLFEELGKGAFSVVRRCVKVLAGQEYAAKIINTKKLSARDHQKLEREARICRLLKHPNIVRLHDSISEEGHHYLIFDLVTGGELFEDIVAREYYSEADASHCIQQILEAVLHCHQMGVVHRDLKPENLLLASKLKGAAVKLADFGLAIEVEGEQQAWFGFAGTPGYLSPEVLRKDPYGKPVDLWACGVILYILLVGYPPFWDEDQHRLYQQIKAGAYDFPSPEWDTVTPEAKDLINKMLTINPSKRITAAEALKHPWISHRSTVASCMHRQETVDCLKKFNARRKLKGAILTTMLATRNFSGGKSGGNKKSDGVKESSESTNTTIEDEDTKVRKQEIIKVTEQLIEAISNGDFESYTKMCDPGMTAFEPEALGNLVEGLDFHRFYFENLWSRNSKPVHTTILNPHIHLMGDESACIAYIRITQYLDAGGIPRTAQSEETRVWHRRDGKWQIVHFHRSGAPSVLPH"}
{"Structure (SMILES)": "O=C(Nc1ccc([N+](=O)[O-])cc1Cl)c1cc(Cl)ccc1O", "inhibition [%]": -5}
{"Structure (SMILES)": "CC[C@H](CC[C@@H](C)[C@H]1CC[C@H]2[C@@H]3CC[C@H]4C[C@@H](O)CC[C@]4(C)[C@H]3CC[C@]12C)C(C)C", "inhibition [%]": 20}
{"Structure (SMILES)": "Cc1cccc(N2CC(CO)OC2=O)c1 (centres unmarked)", "inhibition [%]": 14}
{"Structure (SMILES)": "COc1cc2c(cc1O)CCN[C@]21CS[C@@H]2c3c(OC(C)=O)c(C)c4c(c3[C@H](COC1=O)N1[C@@H]2[C@H]2c3c(cc(C)c(OC)c3O)C[C@@H]([C@@H]1C#N)N2C)OCO4", "inhibition [%]": -4}
{"Structure (SMILES)": "O=c1c(O[C@@H]2O[C@H](CO)[C@@H](O)[C@H](O)[C@H]2O[C@@H]2O[C@H](CO)[C@@H](O)[C@H](O)[C@H]2O)c(-c2ccc(O)cc2)oc2cc(O)cc(O)c12", "inhibition [%]": -32}
{"Structure (SMILES)": "CC(C)C(O)C(=O)O (centres unmarked)", "inhibition [%]": -16}
{"Structure (SMILES)": "Nc1nc2c(ncn2[C@@H]2O[C@H](COP(=O)(O)OP(=O)(O)O[C@H]3O[C@H](CO)[C@@H](O)[C@H](O)[C@@H]3O)[C@@H](O)[C@H]2O)c(=O)[nH]1", "inhibition [%]": -20}
{"Structure (SMILES)": "COc1cc(C[C@H]2C(=O)OC[C@@H]2Cc2ccc(OC)c(OC)c2)ccc1O", "inhibition [%]": -33}
{"Structure (SMILES)": "CC(C)=C[C@H]1C[C@](C)(O)[C@@H]2[C@H]3CC[C@@H]4[C@@]5(C)CC[C@H](O[C@@H]6O[C@H](CO)[C@@H](O)[C@H](O[C@@H]7O[C@H](CO)[C@@H](O)[C@H](O)[C@H]7O)[C@H]6O[C@@H]6O[C@@H](CO)[C@H](O)[C@H]6O)C(C)(C)[C@@H]5CC[C@@]4(C)[C@@]34CO[C@@]2(C4)O1", "inhibition [%]": 12}
{"Structure (SMILES)": "NCCC[C@H](NC(=O)[C@@H]1CCCN1C(=O)[C@@H]1CSSC[C@H](N)C(=O)N[C@@H](Cc2ccc(O)cc2)C(=O)N[C@@H](Cc2ccccc2)C(=O)N[C@@H](CCC(N)=O)C(=O)N[C@@H](CC(N)=O)C(=O)N1)C(=O)NCC(N)=O", "inhibition [%]": -6}
{"Structure (SMILES)": "CO/N=C1\\CN(c2nc3c(cc2F)c(=O)c(C(=O)O)cn3C2CC2)CC1CN (centres unmarked)", "inhibition [%]": -16}
{"Structure (SMILES)": "COC(=O)C1=CO[C@@H](O[C@@H]2O[C@H](CO)[C@@H](O)[C@H](O)[C@H]2O)[C@@H]2[C@@]3(C)O[C@H]3[C@@H](O)[C@]12O", "inhibition [%]": -17}
{"Structure (SMILES)": "CCC(CC)[C@H](NC(C)=O)[C@@H]1[C@H](O)[C@@H](C(=O)O)C[C@H]1N=C(N)N", "inhibition [%]": -12}
{"Structure (SMILES)": "Cc1cccc(O)c1O", "inhibition [%]": -9}
{"Structure (SMILES)": "O=C(NCCN1CCOCC1)c1ccc(Cl)cc1", "inhibition [%]": 5}
{"data": "Series 3", "target": "Beta-3 adrenergic receptor (ADRB3, Homo sapiens, UniProt P13945)", "effect on": "binding", "technique": "radioligand binding", "tested at": "10 µM", "sequence of UniProt P13945 (whole entry, looked up)": "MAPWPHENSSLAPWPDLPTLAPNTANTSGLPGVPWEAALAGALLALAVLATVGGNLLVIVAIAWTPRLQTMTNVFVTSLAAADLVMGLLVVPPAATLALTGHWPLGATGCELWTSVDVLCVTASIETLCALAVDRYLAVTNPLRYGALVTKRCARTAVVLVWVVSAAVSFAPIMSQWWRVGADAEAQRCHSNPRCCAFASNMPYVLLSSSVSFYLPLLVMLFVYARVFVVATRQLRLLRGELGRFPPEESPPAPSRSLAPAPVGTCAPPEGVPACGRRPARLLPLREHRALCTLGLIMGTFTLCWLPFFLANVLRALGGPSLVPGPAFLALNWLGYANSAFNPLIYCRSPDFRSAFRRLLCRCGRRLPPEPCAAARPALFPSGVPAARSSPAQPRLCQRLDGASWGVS"}
{"Structure (SMILES)": "COCc1nc2cnc3cc(-c4c(C)noc4C)c(OC[C@H]4CCNC4)cc3c2n1[C@H](C)c1ccccc1", "inhibition [%]": 10.5}
{"Structure (SMILES)": "Cc1cc(C)c(-n2ccn3nc(-c4cccnc4)cc23)cc1NC(=O)c1cc(C#N)cc(S(F)(F)(F)(F)F)c1", "inhibition [%]": 52.3}
{"Structure (SMILES)": "C[C@@]1(Cc2ccc(C#N)cc2)C(=O)N(c2cc(Cl)cc(Cl)c2)c2ncc(C(=O)NC3(c4nc(C5CCC5)no4)CC3)n21", "inhibition [%]": -16.4}
{"Structure (SMILES)": "Cc1nccc(COC(=O)N2C[C@@H]3[C@@H](CNC(=O)c4ccc5[nH]nnc5c4)[C@@H]3C2)n1", "inhibition [%]": -6.02}
{"Structure (SMILES)": "CC(=O)Nc1c(F)cc(C(=O)N[C@H]2CC[C@H](O)CC2)cc1O[C@@H](C)c1ccccc1", "inhibition [%]": 17.5}
{"Structure (SMILES)": "CN1CCN(C(=O)C(C)(C)c2ccc(C(=O)Nc3cn4cc(-c5ccncc5)ccc4n3)cc2)CC1", "inhibition [%]": -11.5}
{"Structure (SMILES)": "CC1=C(C#N)[C@@H](c2ccc3[nH]nc(C)c3c2)C(C#N)=C(c2ccc(Cl)cc2)N1", "inhibition [%]": 24.3}
{"Structure (SMILES)": "C[C@H](NC(=O)c1cnc2n1[C@](C)(Cc1ccc(C#N)cc1)C(=O)N2c1cc(Cl)c(F)c(Cl)c1)C(=O)NC1(c2ccccn2)CC1", "inhibition [%]": 12.4}
{"Structure (SMILES)": "CNC(=O)Nc1ccc2c(c1)[C@]1(CC2)OC(=O)N(CC(=O)N(Cc2ccc(F)cc2)[C@@H](C)C(F)(F)F)C1=O", "inhibition [%]": -12.1}
{"Structure (SMILES)": "CC(=O)Nc1nc(CN2CCC[C@H](Cc3cc(C)nc(C)c3)C2)cs1", "inhibition [%]": -8.59}
{"Structure (SMILES)": "O=C1c2ccc(Nc3ccc(F)cc3F)cc2CCc2ccc(OC[C@H](O)CO)cc21", "inhibition [%]": -12.4}
{"Structure (SMILES)": "CN1C(=O)[C@@H](N2CCc3cn(Cc4ccccc4)nc3C2=O)COc2ccccc21", "inhibition [%]": 9.8}
{"Structure (SMILES)": "CC(=O)c1c(NS(C)(=O)=O)c2cc(-c3ccc(Cl)cc3)c(-c3ccc(Cl)cc3Cl)nc2n(C)c1=O", "inhibition [%]": 69.3}
{"Structure (SMILES)": "C[C@@H]1CN(c2cc(-c3nn(C)c4ccc(OC5(C)CC5)cc34)ncn2)C[C@H](C)O1", "inhibition [%]": 11.8}
{"Structure (SMILES)": "CS(=O)(=O)NCC[C@H](NC(=O)c1cncc2c1cnn2-c1ccc(F)cc1)c1ccnc(S(C)(=O)=O)c1", "inhibition [%]": -5.01}
{"Structure (SMILES)": "COc1cccc(CNC(=O)c2nc3scc(COCc4ccc(C(=O)O)cc4)c3c(=O)[nH]2)c1", "inhibition [%]": 7.44}
{"Structure (SMILES)": "CC(C)(O)c1cncc(-c2nc3ccc(F)cc3n2C2CC2)c1", "inhibition [%]": 16.7}
{"Structure (SMILES)": "Cc1c(N2CCCC2)nc2ccc(Br)cc2c1C(=O)NC[C@H](CCC(=O)O)c1ccccc1Cl", "inhibition [%]": 21.6}
{"Structure (SMILES)": "O[C@]1(C(F)(F)F)CCCC[C@H]1Nc1ccc(F)cc1", "inhibition [%]": 31}
{"Structure (SMILES)": "Cc1cc(-n2nc(Cc3cc(F)cc(C(F)(F)F)c3)nc2C)ccc1C(N)=O", "inhibition [%]": 4.48}
{"data": "Series 4", "SMILES": "Cc1ccc(NC(=O)c2ccnc(C(F)(F)F)c2)cc1-c1cc(OCCO)nc(N2CCOCC2)c1", "tested at": "1 µM"}
{"target": "Tyrosine-protein kinase ABL1 (ABL1, Homo sapiens, UniProt P00519, F317I)", "technique": "competitive binding scan", "remaining binding [%]": 83}
{"target": "RAC-beta serine/threonine-protein kinase (AKT2, Homo sapiens, UniProt P31751)", "technique": "competitive binding panel", "baseline": "vehicle", "remaining binding [%]": 100}
{"target": "Serine/threonine-protein kinase MARK1 (MARK1, Homo sapiens, UniProt Q9P0L2)", "technique": "competitive binding panel", "baseline": "vehicle", "remaining binding [%]": 100}
{"target": "Platelet-derived growth factor receptor beta (PDGFRB, Homo sapiens, UniProt P09619)", "technique": "competitive binding panel", "baseline": "vehicle", "remaining binding [%]": 0.1}
{"target": "Dual specificity mitogen-activated protein kinase kinase 3 (MAP2K3, Homo sapiens, UniProt P46734)", "technique": "competitive binding panel", "refers to": "MEK3", "baseline": "vehicle", "remaining binding [%]": 77}
{"target": "Calcium/calmodulin-dependent protein kinase type II subunit alpha (CAMK2A, Homo sapiens, UniProt Q9UQM7)", "technique": "competitive binding panel", "baseline": "vehicle", "remaining binding [%]": 99}
{"target": "Serine/threonine-protein kinase ULK1 (ULK1, Homo sapiens, UniProt O75385)", "technique": "competitive binding panel", "baseline": "vehicle", "remaining binding [%]": 85}
{"target": "ALK tyrosine kinase receptor (ALK, Homo sapiens, UniProt Q9UM73)", "technique": "competitive binding panel", "baseline": "vehicle", "remaining binding [%]": 89}
{"target": "Bone morphogenetic protein receptor type-1B (BMPR1B, Homo sapiens, UniProt O00238)", "technique": "competitive binding panel", "baseline": "vehicle", "remaining binding [%]": 100}
{"target": "Muscle, skeletal receptor tyrosine-protein kinase (MUSK, Homo sapiens, UniProt O15146)", "technique": "competitive binding panel", "baseline": "vehicle", "remaining binding [%]": 91}
{"target": "Ephrin type-B receptor 1 (EPHB1, Homo sapiens, UniProt P54762)", "technique": "competitive binding panel", "baseline": "vehicle", "remaining binding [%]": 91}
{"target": "Fibroblast growth factor receptor 1 (FGFR1, Homo sapiens, UniProt P11362)", "technique": "competitive binding panel", "baseline": "vehicle", "remaining binding [%]": 100}
{"target": "Serine/threonine-protein kinase 24 (STK24, Homo sapiens, UniProt Q9Y6E0)", "technique": "competitive binding panel", "refers to": "MST3", "baseline": "vehicle", "remaining binding [%]": 100}
{"target": "Macrophage colony-stimulating factor 1 receptor (CSF1R, Homo sapiens, UniProt P07333)", "technique": "competitive binding scan", "notes": "autoinhibited form", "remaining binding [%]": 87}
{"target": "Serine/threonine-protein kinase Sgk3 (SGK3, Homo sapiens, UniProt Q96BR1)", "technique": "competitive binding panel", "baseline": "vehicle", "remaining binding [%]": 100}
{"target": "Rhodopsin kinase GRK1 (GRK1, Homo sapiens, UniProt Q15835)", "technique": "competitive binding panel", "baseline": "vehicle", "remaining binding [%]": 98}
{"target": "Mitogen-activated protein kinase 11 (MAPK11, Homo sapiens, UniProt Q15759)", "technique": "competitive binding, scanMAX", "notes": "p38-beta, 1000 nM", "remaining binding [%]": 34}
